Results from different studies.
Every numbered part comes from another study and shows a few of its results, in no order. Several values in a cell are separate wells, animals, samples, runs or records.
Sequence of UniProt Q15759 (whole entry, looked up): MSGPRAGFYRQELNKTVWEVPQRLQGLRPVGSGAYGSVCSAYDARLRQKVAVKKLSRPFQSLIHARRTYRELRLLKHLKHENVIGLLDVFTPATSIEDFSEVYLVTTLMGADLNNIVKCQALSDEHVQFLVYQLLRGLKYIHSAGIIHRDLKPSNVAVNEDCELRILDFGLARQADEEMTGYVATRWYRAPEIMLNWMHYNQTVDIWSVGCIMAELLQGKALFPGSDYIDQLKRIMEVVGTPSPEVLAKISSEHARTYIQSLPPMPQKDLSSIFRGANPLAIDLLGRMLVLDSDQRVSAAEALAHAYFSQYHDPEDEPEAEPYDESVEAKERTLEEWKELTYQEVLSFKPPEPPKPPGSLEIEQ
Sequence of UniProt P00519 (whole entry, unmodified, looked up): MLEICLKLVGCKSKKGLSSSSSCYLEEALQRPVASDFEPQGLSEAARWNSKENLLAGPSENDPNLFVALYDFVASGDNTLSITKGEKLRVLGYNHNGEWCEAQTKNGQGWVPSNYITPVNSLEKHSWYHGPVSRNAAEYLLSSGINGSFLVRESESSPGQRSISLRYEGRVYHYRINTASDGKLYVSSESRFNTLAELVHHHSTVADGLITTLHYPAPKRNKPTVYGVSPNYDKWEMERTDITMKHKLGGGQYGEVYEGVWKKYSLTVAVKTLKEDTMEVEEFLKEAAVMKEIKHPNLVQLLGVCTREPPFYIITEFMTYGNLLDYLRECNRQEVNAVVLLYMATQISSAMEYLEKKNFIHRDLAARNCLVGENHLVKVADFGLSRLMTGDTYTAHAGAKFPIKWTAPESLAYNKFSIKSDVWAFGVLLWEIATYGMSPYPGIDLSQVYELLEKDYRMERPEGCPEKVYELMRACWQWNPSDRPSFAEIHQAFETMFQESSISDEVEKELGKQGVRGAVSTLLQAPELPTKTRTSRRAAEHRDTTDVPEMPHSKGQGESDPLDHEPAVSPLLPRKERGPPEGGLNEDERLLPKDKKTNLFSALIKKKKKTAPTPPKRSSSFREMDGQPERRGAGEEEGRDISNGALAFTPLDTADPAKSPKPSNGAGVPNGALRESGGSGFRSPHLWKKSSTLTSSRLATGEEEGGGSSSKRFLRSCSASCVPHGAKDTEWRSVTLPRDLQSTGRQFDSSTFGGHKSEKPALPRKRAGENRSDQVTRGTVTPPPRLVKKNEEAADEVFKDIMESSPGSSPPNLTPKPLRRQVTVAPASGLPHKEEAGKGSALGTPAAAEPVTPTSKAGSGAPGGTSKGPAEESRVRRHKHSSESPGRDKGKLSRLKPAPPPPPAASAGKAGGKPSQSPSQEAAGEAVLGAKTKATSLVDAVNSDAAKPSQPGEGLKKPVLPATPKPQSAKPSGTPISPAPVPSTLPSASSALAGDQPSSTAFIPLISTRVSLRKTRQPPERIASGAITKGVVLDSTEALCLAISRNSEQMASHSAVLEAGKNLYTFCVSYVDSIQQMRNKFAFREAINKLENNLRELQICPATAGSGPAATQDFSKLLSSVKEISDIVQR
Sequence of UniProt P53671 (whole entry, looked up): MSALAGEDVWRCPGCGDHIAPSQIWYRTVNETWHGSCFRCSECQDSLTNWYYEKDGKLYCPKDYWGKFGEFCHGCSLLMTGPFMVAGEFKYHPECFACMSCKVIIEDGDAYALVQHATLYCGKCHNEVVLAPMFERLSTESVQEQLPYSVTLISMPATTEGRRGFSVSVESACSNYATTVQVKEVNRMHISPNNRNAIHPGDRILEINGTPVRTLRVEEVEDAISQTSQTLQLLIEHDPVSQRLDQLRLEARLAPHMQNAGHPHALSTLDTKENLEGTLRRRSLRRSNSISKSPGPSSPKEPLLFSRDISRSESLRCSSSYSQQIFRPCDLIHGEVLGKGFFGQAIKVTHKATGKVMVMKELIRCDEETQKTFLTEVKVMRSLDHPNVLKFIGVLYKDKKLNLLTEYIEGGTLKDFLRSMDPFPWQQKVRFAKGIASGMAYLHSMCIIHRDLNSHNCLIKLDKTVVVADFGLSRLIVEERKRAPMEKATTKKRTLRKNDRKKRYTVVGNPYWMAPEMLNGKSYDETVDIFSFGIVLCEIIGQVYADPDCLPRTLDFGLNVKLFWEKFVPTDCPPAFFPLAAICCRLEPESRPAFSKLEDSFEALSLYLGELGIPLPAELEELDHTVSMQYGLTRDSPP
Sequence of UniProt Q6ZN16 (whole entry, looked up): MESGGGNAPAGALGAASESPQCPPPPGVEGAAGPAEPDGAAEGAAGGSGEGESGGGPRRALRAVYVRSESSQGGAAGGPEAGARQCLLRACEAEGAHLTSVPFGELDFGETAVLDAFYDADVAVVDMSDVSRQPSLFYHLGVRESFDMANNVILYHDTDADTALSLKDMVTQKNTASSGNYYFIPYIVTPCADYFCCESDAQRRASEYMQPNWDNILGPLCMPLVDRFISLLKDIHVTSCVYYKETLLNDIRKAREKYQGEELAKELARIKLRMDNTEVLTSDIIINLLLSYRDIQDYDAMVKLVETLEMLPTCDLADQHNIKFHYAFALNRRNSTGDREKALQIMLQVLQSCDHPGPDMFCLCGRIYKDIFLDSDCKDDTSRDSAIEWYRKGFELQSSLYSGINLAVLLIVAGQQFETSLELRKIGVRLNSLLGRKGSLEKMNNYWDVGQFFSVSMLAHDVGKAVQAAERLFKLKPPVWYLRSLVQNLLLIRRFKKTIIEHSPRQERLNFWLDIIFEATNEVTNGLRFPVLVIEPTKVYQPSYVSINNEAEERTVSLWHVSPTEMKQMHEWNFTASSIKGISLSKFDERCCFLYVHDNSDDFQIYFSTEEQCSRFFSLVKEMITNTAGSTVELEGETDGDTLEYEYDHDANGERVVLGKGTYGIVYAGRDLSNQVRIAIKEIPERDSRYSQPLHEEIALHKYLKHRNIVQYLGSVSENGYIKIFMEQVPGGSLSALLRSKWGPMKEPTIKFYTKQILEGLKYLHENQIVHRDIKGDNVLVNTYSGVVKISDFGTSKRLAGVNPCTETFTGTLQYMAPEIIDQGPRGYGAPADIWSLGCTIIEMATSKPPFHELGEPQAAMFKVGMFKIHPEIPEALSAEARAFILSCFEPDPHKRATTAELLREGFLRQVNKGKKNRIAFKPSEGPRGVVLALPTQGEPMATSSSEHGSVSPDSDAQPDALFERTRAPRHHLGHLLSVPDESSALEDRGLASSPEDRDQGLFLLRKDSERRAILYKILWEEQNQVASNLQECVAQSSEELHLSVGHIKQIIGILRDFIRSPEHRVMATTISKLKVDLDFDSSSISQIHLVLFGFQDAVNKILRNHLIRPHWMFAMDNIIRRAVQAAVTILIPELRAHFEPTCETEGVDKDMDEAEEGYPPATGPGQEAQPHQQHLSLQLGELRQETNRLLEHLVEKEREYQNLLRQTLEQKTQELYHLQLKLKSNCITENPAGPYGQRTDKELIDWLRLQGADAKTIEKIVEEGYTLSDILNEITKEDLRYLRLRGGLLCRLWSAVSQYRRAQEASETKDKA
Sequence of UniProt P31751 (whole entry, looked up): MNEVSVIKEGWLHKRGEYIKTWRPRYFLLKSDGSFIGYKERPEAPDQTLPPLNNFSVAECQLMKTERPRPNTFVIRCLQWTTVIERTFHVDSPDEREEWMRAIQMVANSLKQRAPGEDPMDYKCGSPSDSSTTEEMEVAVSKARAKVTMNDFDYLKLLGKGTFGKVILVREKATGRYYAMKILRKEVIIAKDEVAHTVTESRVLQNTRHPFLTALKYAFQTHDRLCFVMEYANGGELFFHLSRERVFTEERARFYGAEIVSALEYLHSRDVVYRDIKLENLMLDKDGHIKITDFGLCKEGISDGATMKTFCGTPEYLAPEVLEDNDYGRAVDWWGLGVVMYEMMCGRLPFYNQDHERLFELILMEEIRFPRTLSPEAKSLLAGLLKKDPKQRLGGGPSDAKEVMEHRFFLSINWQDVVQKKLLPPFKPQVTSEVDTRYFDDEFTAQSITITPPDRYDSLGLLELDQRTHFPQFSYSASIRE
Sequence of UniProt P19784 (whole entry, looked up): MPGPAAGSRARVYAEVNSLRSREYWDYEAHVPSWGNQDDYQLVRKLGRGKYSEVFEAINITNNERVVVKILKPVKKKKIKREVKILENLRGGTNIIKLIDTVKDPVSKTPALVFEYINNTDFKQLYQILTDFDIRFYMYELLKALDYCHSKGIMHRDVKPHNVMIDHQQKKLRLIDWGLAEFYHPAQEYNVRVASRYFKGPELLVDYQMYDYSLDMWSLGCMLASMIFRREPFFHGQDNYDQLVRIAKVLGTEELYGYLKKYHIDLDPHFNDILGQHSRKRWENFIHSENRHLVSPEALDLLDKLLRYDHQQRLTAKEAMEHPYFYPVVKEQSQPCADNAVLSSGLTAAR

Sample 1
Compound: CC(C)n1cnc(-c2ccc(F)cc2)c1-c1ncc(C(=O)Nc2ccc(N3CCN(C)CC3)cc2)[nH]1
Species: human, idiopathic pulmonary fibrosis
test | conditions | AE leading to discontinuation [%]
– | 30 mg twice daily, trial, with standard of care | 25
– | 30 mg once daily, trial, without standard of care | 0
– | 30 mg once daily, trial, with standard of care | 9.1
item: liver injury | 30 mg twice daily, trial | 5.6

Sample 2
Species: mouse
Medium: microsomes or S9
Tested at: 2 µM
Time: 0.5 h
Structure (SMILES) | remaining compound
O=C(c1ccccc1C1CCNC1)N1CCC2(C=Cc3ccccc32)CC1 (centres unmarked) | 43.5%
COC(=O)c1ccc2c(=O)n(-c3ccccc3)c(N(Cc3ccco3)C3CCCC3)nc2c1 | 4.61%
CCCc1c(C(=O)O)cnn1-c1nc(CC)cc(=O)[nH]1 | > 99.9%
CCn1c(=O)n(CC)c2cc(NC(=O)CCN3Cc4ccccc4C3=O)ccc21 | 5.92%
COc1cc(=O)[nH]cc1C(=O)N1CCN(C)c2ncccc2C1 | 88.1%

Sample 3
Cell line: mouse MPNST tumor cells
Method: high-content nuclear imaging
Item: cell number
Tested at: 10 µM
Time: 12 h
Notes: mean of 2 replicates
Baseline: plate mean
Direction: higher = more cells
Compound | nuclei count
CC[C@H](C)C(=O)O[C@H]1CCC=C2C=C[C@H](C)[C@H](CC[C@@H]3C[C@@H](O)CC(=O)O3)[C@H]21 | -4.93 z-score and -3.61 z-score
Cc1c(C)c(NCC(=O)N(C)C2CCN(Cc3ccc(C(N)=O)cc3)CC2)c(C)c(C)c1N | -0.546 z-score
CN1CCN(CCCN2c3ccccc3Sc3ccc(Cl)cc32)CC1 | -4.94 z-score
CCn1c(=Cc2cccc[n+]2CC)sc(=C2Sc3ccccc3N2C)c1=O | -1.65 z-score
CCN(CC)CCOc1ccc(Nc2ncc3cc(-c4c(Cl)cccc4Cl)c(=O)n(C)c3n2)cc1 | -6.53 z-score
CCOc1cc2ncc(C#N)c(Nc3ccc(F)c(Cl)c3)c2cc1NC(=O)/C=C/CN(C)C | -5.99 z-score

Sample 4
Structure (SMILES): CN(C(=O)c1ccccc1)c1cc(N(C)c2ccc3c(c2)CCc2ccc(C(=O)NCCN4CCOCC4)cc2C3=O)ccc1F
Tested at: 1 µM
target | test | remaining binding
SBK1 (Homo sapiens, UniProt Q52WX2) | cell-free assay, competition with immobilised ligand | 93%
ACVR1B (Homo sapiens, UniProt P36896) | cell-free assay, competition with immobilised ligand | 89%
CSNK2A2 (Homo sapiens, UniProt P19784) | cell-free assay, competition with immobilised ligand | 97%
CDK19 (Homo sapiens, UniProt Q9BWU1) | competition binding | 85%
MAP3K1 (Homo sapiens, UniProt Q13233) | cell-free assay, competition with immobilised ligand | 100%
Tyrosine-protein kinase ABL1, non-phosphorylated (ABL1, Homo sapiens, UniProt P00519, F317L) | cell-free assay, competition with immobilised ligand | 94%
MARK4 (Homo sapiens, UniProt Q96L34) | cell-free assay, competition with immobilised ligand | 88%
LIM domain kinase 2 (LIMK2, Homo sapiens, UniProt P53671) | cell-free assay, competition with immobilised ligand | 100%
MAPK11 (Homo sapiens, UniProt Q15759) | cell-free assay, competition with immobilised ligand | 92%
Ribosomal protein S6 kinase alpha-6, C-terminal kinase domain (RPS6KA6, Homo sapiens, UniProt Q9UK32) | cell-free assay, competition with immobilised ligand | 100%
EGFR (Homo sapiens, UniProt P00533, del747-750/T751S) | cell-free assay, competition with immobilised ligand | 100%
MELK (Homo sapiens, UniProt Q14680) | cell-free assay, competition with immobilised ligand | 100%
FGFR1 (Homo sapiens, UniProt P11362) | cell-free assay, competition with immobilised ligand | 84%
HASPIN (Homo sapiens, UniProt Q8TF76) | cell-free assay, competition with immobilised ligand | 100%
MAP3K15 (Homo sapiens, UniProt Q6ZN16) | cell-free assay, competition with immobilised ligand | 100%
MAP3K19 (Homo sapiens, UniProt Q56UN5) | cell-free assay, competition with immobilised ligand | 100%
AKT2 (Homo sapiens, UniProt P31751) | cell-free assay, competition with immobilised ligand | 95%

Sample 5
Target: Calcium/calmodulin-dependent protein kinase type II subunit alpha (CAMK2A, Homo sapiens, UniProt Q9UQM7)
Sequence of UniProt Q9UQM7 (whole entry, looked up): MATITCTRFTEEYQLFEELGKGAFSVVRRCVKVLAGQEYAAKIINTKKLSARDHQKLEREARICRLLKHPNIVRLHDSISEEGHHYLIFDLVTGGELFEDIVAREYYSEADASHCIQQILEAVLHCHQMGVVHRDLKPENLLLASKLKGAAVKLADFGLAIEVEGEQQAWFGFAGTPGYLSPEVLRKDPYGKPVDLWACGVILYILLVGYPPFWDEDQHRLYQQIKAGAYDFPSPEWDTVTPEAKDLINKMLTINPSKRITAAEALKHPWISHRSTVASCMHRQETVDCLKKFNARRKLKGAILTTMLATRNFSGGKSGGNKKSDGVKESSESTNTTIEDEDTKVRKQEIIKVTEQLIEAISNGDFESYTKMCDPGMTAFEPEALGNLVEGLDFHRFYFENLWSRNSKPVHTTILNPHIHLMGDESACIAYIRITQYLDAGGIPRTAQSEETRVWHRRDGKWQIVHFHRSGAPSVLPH
Read-out: enzyme activity
Mode: inhibitor
Tested at: 10 µM
Structure (SMILES) | inhibition
CCOc1nc2cccc(C(=O)O)c2n1Cc1ccc(-c2ccccc2-c2nnn[nH]2)cc1 | -2%
COc1cc(/C=C/C(=O)OC[C@H]2O[C@H](O[C@]3(CO)O[C@H](CO)[C@@H](O)[C@@H]3O)[C@H](O)[C@@H](O)[C@@H]2O)cc(OC)c1O | 6%
CC(C)C(=O)OC[C@H]1O[C@@H](n2ccc(NO)nc2=O)[C@H](O)[C@@H]1O | -3%

For quick reference, copied from above (sample 3):
Compound | nuclei count
CC[C@H](C)C(=O)O[C@H]1CCC=C2C=C[C@H](C)[C@H](CC[C@@H]3C[C@@H](O)CC(=O)O3)[C@H]21 | -4.93 z-score and -3.61 z-score
Cc1c(C)c(NCC(=O)N(C)C2CCN(Cc3ccc(C(N)=O)cc3)CC2)c(C)c(C)c1N | -0.546 z-score
CN1CCN(CCCN2c3ccccc3Sc3ccc(Cl)cc32)CC1 | -4.94 z-score
CCn1c(=Cc2cccc[n+]2CC)sc(=C2Sc3ccccc3N2C)c1=O | -1.65 z-score
CCN(CC)CCOc1ccc(Nc2ncc3cc(-c4c(Cl)cccc4Cl)c(=O)n(C)c3n2)cc1 | -6.53 z-score
